Measurements gathered from unrelated publications.
Each numbered part is a random draw from the data of one study; scales do not carry over between parts.
Sequence of UniProt P27361 (whole entry, looked up): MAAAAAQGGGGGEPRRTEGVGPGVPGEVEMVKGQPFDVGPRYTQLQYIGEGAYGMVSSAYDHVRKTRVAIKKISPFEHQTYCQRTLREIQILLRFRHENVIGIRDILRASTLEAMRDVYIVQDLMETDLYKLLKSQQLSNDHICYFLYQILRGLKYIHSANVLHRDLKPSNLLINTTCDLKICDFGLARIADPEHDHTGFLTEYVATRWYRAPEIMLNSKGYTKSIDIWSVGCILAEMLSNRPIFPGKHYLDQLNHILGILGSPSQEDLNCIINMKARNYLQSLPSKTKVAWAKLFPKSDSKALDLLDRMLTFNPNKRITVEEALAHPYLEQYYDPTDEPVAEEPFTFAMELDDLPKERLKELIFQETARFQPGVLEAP
Sequence of UniProt Q9UIK4 (whole entry, looked up): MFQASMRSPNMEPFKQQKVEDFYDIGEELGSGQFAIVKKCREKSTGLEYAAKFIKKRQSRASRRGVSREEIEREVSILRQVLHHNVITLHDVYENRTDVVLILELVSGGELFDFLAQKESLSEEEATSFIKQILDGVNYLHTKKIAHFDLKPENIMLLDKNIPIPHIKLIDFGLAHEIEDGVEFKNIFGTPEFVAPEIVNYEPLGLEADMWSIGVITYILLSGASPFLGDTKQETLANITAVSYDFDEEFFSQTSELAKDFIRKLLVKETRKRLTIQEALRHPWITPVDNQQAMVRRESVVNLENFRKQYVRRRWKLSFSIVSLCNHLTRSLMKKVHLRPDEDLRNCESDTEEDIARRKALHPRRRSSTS
Sequence of UniProt P35916 (whole entry, looked up): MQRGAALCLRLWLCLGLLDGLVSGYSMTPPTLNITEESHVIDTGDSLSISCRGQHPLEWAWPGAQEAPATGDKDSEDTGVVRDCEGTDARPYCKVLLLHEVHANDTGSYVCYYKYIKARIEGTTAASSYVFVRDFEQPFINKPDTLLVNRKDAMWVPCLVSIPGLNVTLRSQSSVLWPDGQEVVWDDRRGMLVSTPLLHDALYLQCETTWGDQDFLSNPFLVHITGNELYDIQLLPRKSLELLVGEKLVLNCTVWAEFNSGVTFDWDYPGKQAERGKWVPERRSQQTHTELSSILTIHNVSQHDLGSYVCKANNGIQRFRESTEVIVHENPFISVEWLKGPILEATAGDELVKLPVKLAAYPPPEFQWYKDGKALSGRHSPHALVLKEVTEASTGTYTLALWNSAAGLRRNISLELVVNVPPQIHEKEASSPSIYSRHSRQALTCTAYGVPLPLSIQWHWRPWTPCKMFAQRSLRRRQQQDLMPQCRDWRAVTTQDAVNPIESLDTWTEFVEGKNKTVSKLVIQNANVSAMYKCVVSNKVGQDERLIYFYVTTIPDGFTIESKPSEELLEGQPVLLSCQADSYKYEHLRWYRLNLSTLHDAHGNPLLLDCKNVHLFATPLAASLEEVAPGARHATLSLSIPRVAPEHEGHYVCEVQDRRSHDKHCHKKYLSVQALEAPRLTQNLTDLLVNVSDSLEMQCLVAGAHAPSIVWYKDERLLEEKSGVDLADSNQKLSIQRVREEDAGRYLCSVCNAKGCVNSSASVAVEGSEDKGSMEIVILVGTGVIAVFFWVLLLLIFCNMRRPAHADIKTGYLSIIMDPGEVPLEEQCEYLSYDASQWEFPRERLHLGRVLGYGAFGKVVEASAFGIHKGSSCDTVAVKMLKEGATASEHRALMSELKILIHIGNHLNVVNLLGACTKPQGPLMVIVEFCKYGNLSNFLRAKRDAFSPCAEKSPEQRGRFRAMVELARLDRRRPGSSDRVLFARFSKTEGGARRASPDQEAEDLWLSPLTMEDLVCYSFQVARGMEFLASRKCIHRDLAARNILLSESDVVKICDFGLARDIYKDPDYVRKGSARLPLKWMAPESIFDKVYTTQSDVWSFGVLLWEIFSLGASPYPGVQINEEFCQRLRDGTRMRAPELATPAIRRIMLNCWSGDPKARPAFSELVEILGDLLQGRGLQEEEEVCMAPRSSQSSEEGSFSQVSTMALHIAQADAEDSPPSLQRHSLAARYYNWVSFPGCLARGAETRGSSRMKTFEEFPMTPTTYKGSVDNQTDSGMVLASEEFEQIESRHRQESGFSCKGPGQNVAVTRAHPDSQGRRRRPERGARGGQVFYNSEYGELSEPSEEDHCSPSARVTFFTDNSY
Sequence of UniProt P54753 (whole entry, looked up): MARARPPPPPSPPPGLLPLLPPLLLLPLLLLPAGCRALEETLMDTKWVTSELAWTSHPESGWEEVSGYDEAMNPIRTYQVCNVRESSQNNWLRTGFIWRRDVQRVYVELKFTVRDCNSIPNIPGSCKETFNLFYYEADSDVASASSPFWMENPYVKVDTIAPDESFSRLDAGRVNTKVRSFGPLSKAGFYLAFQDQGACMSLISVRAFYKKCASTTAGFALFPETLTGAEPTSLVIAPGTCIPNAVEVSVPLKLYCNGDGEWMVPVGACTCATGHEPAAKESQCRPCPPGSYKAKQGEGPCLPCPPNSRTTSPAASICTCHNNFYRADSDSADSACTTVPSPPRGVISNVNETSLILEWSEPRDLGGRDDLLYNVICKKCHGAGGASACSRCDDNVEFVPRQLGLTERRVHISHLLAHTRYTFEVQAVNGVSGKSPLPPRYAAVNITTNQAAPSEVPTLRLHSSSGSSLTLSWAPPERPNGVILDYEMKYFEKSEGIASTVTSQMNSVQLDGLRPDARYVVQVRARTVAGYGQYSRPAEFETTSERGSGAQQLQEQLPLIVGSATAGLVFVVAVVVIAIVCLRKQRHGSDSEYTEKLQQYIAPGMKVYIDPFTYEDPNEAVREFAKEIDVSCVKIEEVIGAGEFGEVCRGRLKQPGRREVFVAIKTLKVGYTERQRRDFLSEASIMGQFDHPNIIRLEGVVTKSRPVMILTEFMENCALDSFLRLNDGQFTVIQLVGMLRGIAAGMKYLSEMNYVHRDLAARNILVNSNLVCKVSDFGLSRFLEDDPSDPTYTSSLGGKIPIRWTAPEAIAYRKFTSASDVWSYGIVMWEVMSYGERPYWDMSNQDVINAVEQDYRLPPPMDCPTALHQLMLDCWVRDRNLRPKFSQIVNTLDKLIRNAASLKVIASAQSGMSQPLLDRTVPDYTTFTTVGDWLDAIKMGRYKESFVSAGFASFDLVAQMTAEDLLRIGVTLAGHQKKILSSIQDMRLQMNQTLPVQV
Sequence of UniProt P42680 (whole entry, looked up): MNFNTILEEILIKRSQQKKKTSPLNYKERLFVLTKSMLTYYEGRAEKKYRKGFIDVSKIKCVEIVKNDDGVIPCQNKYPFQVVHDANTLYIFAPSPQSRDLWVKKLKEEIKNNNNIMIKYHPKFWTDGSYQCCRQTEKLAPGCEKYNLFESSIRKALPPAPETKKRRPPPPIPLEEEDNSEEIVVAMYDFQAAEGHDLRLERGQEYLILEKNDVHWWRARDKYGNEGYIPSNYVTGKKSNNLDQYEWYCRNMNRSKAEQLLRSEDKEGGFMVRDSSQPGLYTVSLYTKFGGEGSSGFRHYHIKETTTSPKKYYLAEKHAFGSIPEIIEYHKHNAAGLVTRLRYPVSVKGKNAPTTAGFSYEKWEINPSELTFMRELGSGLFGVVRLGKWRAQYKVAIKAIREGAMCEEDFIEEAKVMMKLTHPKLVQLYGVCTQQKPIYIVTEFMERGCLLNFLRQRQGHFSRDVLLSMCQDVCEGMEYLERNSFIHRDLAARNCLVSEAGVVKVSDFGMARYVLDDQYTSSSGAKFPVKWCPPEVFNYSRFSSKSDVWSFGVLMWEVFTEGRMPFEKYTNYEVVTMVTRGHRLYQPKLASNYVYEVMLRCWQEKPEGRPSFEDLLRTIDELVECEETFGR

Set 1
Target: Calcium/calmodulin-dependent protein kinase type II subunit gamma (CAMK2G, Homo sapiens, UniProt Q13555)
Sequence of UniProt Q13555 (whole entry, looked up): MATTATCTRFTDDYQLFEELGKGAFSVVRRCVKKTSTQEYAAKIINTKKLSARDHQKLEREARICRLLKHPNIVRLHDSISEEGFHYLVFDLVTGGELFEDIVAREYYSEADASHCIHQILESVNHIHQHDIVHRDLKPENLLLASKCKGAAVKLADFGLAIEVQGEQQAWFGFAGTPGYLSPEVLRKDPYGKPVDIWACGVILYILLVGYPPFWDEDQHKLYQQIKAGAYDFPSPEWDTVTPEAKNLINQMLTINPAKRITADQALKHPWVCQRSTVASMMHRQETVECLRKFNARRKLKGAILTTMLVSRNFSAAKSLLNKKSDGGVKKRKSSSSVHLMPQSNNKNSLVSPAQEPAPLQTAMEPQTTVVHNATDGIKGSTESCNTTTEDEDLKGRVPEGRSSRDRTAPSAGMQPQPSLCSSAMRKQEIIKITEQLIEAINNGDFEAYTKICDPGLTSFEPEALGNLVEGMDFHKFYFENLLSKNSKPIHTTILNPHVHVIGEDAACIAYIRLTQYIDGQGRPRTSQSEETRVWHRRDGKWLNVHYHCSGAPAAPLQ
Effect on: enzyme activity
Action: inhibitor
Concentration: 0.5 µM
Baseline: control
SMILES	remaining activity
N#CC(=C(N)Sc1ccc(N)cc1)c1ccccc1C(F)(F)F	106%
Nc1nc(Nc2ccc(S(N)(=O)=O)cc2)nn1C(=O)c1c(F)cccc1F	104%
CC(C)(C)n1nc(Cc2cccc3ccccc23)c2c(N)ncnc21	95.4%
Fc1ccc(-c2nc3n(c2-c2ccncc2)CCS3)cc1	90.5%
O=C1NC(=O)C(c2c[nH]c3ccccc23)=C1c1c[nH]c2ccccc12	104%
Cc1cncc2cccc(S(=O)(=O)N3CCCN(C(=O)CN)C[C@@H]3C)c12	94%
Nc1ncnc2c1cnn2-c1ccccc1	105%
Nc1nccc(-c2c(-c3ccc(F)cc3)ncn2C2CCNCC2)n1	93%
CC[n+]1c(/C=C/N(C)c2ccccc2)n(-c2ccccc2)c2ccc(-c3nc4ccccc4s3)cc21	103%
Oc1ccc(Nc2nc(-c3ccc(Cl)cc3)cs2)cc1	90.6%

Set 2
Matrix: hydrocarbon/water
pH: 7.4
SMILES	logD
CCN1CC(=O)N[C@@H](CC(C)C)C(=O)N2CCC[C@@H]2C(=O)N(C)[C@@H](C)C(=O)N[C@@H](CC2CCCCC2)C(=O)N(C)[C@@H](C)C(=O)N[C@@H](CC(C)C)C(=O)N(C)Cc2cn(nn2)CC(=O)N[C@@H](CC(C)C)C1=O	0.111
CC[C@@H]1C(=O)N(C)[C@@H](CC(C)C)C(=O)N[C@@H](CC(C)C)C(=O)N2CCC[C@@H]2C(=O)N(C)[C@@H](Cc2ccc(O)cc2)C(=O)N[C@@H](CC(C)C)C(=O)N1C	1.38
CC[C@H]1C(=O)N[C@@H](CC(C)C)C(=O)N2CCC[C@@H]2C(=O)N(C)[C@@H](Cc2ccc(O)cc2)C(=O)N[C@@H](CC(C)C)C(=O)N(C)[C@H](C)C(=O)N1C	-0.417
CCN1CC(=O)N[C@@H](CC(C)C)C(=O)N2CCC[C@@H]2C(=O)N(C)[C@@H](CC(C)C)C(=O)N[C@@H](C)C(=O)N(CC2CCOCC2)CC(=O)N[C@@H](Cc2ccccc2)C(=O)N2CCC[C@@H]2C(=O)N(C)[C@@H](CC(C)C)C(=O)N[C@@H](C)C1=O	0.737

Set 3
Target: Beta-1 adrenergic receptor (ADRB1, Homo sapiens, UniProt P08588)
Sequence of UniProt P08588 (whole entry, looked up): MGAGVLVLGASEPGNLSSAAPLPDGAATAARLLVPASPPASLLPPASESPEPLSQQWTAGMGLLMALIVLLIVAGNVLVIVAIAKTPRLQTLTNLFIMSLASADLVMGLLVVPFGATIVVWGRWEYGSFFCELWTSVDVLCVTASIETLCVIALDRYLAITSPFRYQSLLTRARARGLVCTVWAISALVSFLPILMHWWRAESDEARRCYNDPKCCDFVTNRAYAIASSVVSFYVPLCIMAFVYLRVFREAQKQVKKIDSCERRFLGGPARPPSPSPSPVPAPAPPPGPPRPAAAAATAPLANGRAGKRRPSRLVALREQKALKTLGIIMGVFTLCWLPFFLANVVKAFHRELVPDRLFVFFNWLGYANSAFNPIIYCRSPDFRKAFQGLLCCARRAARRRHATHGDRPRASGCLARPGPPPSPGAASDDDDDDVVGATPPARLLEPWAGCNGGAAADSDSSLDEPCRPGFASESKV
Action: antagonist
SMILES	IC50 [µM]
COc1cc(CNC2CCCCCCC2)ccc1OCC(O)CN1CCSCC1 (stereo not shown)	≥ 100
CCOC(=O)c1ccc(NC(=O)N2Cc3nc[nH]c3C[C@H]2c2nc(C(C)C)no2)cc1	≥ 100
O=c1ccc2cc(O)c(O)cc2o1	≥ 100
Cc1cn([C@@H]2O[C@H](CO)[C@@H](O)[C@H]2O)c(=O)[nH]c1=O	≥ 100
OC(COc1ccc(CN2CC(N3CCCCC3)C2)cc1)CN1CCCCC1 (stereo not shown)	≥ 100
CC(CCc1ccc(O)cc1)NCC(O)c1ccc(O)cc1 (stereo not shown)	≥ 100
O=C(NCC(O)c1ccccc1)c1cnn2c(-c3ccccc3)ccnc12 (stereo not shown)	≥ 100
Cc1cccc(NC(=O)COc2ccc3c(C)cc(=O)oc3c2)c1	≥ 100

Set 4
SMILES: Cc1nccc(COC(=O)N2C[C@@H]3[C@@H](CNC(=O)c4ccc5[nH]nnc5c4)[C@@H]3C2)n1
Concentration: 1 µM
target	effect on	technique	remaining binding [%]
FLT4 (Homo sapiens, UniProt P35916)	cell-free assay	competition with immobilised ligand	100
STK24 (Homo sapiens, UniProt Q9Y6E0)	cell-free assay	competition with immobilised ligand	90
CDK11B (Homo sapiens, UniProt P21127)	cell-free assay	competition with immobilised ligand	100
DAPK2 (Homo sapiens, UniProt Q9UIK4)	cell-free assay	competition with immobilised ligand	82
Tyrosine-protein kinase ABL1, phosphorylated (ABL1, Homo sapiens, UniProt P00519, F317I)	binding	–	81
BUB1 (Homo sapiens, UniProt O43683)	cell-free assay	competition with immobilised ligand	90
EPHB3 (Homo sapiens, UniProt P54753)	cell-free assay	competition with immobilised ligand	100
TEC (Homo sapiens, UniProt P42680)	binding	competition with immobilised ligand	94
MAPK3 (Homo sapiens, UniProt P27361)	cell-free assay	competition with immobilised ligand	92

For quick reference, copied from above (set 4):
target	effect on	technique	remaining binding [%]
Tyrosine-protein kinase ABL1, phosphorylated (ABL1, Homo sapiens, UniProt P00519, F317I)	binding	–	81
EPHB3 (Homo sapiens, UniProt P54753)	cell-free assay	competition with immobilised ligand	100
STK24 (Homo sapiens, UniProt Q9Y6E0)	cell-free assay	competition with immobilised ligand	90
CDK11B (Homo sapiens, UniProt P21127)	cell-free assay	competition with immobilised ligand	100
